Measurements collected from several papers.
A part holds a random share of what one study measured. Positions count from the first letter of the parent shown.

Series 1
Target: RNA binding protein fox-1 homolog 2, RRM domain, GST-SBP tag (RBFOX2, Homo sapiens, UniProt O43251-10, residues 100-194)
Method: RNA Bind-n-Seq
Form: RNA
Medium: in vitro
Concentration: 365 nM
Notes: natural RNA segment, single round, ends assumed
Relative to: no-protein control
Reading: higher = stronger binding
Shared flanks, not repeated: GGGAGUUCUACAGUCCGACGAUC … UGGAAUUCUCGGGUGCCAA
Construct (chain): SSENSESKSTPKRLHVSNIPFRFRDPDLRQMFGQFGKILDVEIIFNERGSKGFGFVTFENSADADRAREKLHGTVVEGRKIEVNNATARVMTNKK
| Oligonucleotide | RBNS enrichment (R) |
| --- | --- |
| CUCCCUCCGAUGUUGGACUGCCUGAUGCUCCCAAUGACAUAUCCAAUGCUCCUGGCAUUUCUGGAGCAGGAGGUUGUCAGGACAACACAUAUAACCACCAAGGAUGUGUU | 0.467 |
| AAAUCUACCAGCUCUUGGAUGAAGAUAGAACAGUGCUUUUCCAGAGUGGGAAGGAAGGGGUUGAGACGCGUGCUUUGAGAGCCUGUGAGGCUGCUCCGUCCUUGCCAGCU | 0.336 |
| AUUCCAGGAUUUAGGCCUUAUCAUCCCGGCCAGUCUCAGAUGACCUAGCUGGCCCCAGGCUGGGGUCCUAUGCAAAGCAGGAUCCCACUAAUGGGAUUCAGGCAGAAGUG | 0.194 |
| UGUCCUGCCAACGGUAACAAUCAAGUAUGUCAUCAGACAUUGCCCAAUGUCCCCAGGGGGCAACACCCCUCUCUUGGACUUCAGGGUCAAGAGAAUCUCUGCUGGCUACC | 0.173 |
| GAGAGGAUUUCCUGAGACUGGUUUGGAUCUCCCUGCAUGACAGUCCCCCAGAAACUUAGUGAGUCCUGGACUGGACUGAACAUCCAGAAAGCUUCCCUGCAAUCUUGGGG | 5.11 |
| GAACCUGCUAUGGCCUUCAGCAGUCACCAUCAUCCAGACCCCCCGGGCCUCAGUUUCCUCAAUCAUAGAAGAAGACCAAUAGACAAGAUCAGCUGUUCUUAGAUGCUGGU | 0.317 |
| CUUAAUGGCAAAAUAAUUAUGGUAAAAUACAAGUCUCGUGUUUAUUAUUCCUUAAGAAGUCUGUGUUAUAUUACCACGGAACACCCAAUAAAGCAAAAUGUGGUUGUUUC | 0.536 |
| UUAGGCCACUGUGCUUUGCGGUCCAUUAGUAAACUUGUGUUGCUAAGUGCUAAACAGAAUACUGCUAUUUUGAGAGAGUCAAGACUCUUUCUUAAGGGCCAAGAAAGCAA | 0.209 |
| GGACAAGGAAGACAUUAUACUAGUUGAGGCUACAGAAACUCACAUUUUGCUAGAGCUCAAGUAAUAGAAACUUAGUUUCAGAAUCCUGAAUCCAACAUCUAUUUGGAAUG | 0.225 |
| GAACAAGAUACAUUGCAGUGUCAUUUAUAGAUCCCUAAGUUAUUUACUUUUCAUUGAAUUGAAAUUUAUUUUGGAUGAAUGACUGGCAUGAACACGUCUUUGAAGUUGUG | 0.423 |
| CCUCUCCCCAGGGCCUGGCCCUACCUCCUGGUCUUGUAAUUACAGGAGCCAUUUCUGUAGGUAACUGGACCAAGAAUGAGAAAAAUAAUGAAUUCUUAGCUCCCUGAUUA | 0.42 |
| AUGCGCGGAGGAGCUAGCCUGAAGGAUUCUGGGAAUCAUGUCCAUCCCUUUUCCUGUCAGUGUUUUUGAAACCCACAGUUUUAGUUGGUGCUGAUGGAGGGAGGGGGAAG | 0.414 |

Series 2
Target: ABI1, truncated, D143A, DHFR fusion (Arabidopsis thaliana)
Method: DHFR PCA, deep sequencing
Medium: yeast
Notes: methotrexate growth selection, single substitutions
Together with: (+)-ABA 200 µM
Relative to: wild-type fitted maximum
Reading: higher = stronger binding
Parent: PYL1, truncated, DHFR fusion (Arabidopsis thaliana); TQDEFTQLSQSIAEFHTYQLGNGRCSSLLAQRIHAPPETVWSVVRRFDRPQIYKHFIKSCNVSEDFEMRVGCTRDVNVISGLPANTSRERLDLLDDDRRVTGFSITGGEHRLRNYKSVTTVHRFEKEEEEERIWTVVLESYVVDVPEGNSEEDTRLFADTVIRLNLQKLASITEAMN; partner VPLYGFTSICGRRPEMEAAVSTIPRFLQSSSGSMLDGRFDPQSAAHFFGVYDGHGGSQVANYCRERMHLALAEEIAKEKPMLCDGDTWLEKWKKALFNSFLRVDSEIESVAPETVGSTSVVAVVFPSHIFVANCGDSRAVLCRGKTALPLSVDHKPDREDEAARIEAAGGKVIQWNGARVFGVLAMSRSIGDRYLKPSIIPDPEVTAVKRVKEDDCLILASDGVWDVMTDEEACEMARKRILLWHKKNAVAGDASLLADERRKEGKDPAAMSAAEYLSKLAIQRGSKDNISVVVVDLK
| Variant | relative binding score |
| --- | --- |
| L8C | 90% |
| Q7P | 87.6% |
| T106V | 108% |
| L164P | -5.96% |
| E4S | 87.2% |
| H16R | 2.38% |
| R132S | 113% |
| G102Y | 9.26% |
| R132A | 113% |
| S63Y | 88.5% |
| I57Q | 50.8% |
| D144T | 78.2% |
| H34Y | 94.8% |
| F157N | -2.02% |
| E151F | 90.8% |
| G81C | 67% |
| P36I | 76.2% |

Series 3
Target: Histone acetyltransferase KAT6A, both winged helices, GST fusion (KAT6A, Homo sapiens, UniProt Q92794, residues 1-181)
Method: protein binding microarray
Form: double-stranded DNA, one strand shown
Medium: in vitro
Concentration: not given
Notes: 8-mer, flanks averaged, mean of 2 arrays, mostly near background
Relative to: not given
Reading: higher = stronger binding
Residues (chain): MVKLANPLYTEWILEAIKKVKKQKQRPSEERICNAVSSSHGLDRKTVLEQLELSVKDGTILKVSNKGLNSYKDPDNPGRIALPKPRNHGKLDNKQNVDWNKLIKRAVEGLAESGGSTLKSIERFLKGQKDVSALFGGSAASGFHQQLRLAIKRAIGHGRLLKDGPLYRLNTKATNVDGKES
| Oligonucleotide | E-score |
| --- | --- |
| CATTGTCA | -0.149 |
| ACCCTTCG | 0.0264 |
| GACTCTAA | -0.188 |
| TCATCCAA | -0.25 |
| ATTTTCGG | 0.0207 |
| ATCTTTTC | -0.0878 |
| ACATACAA | 0.062 |
| AAATCTAC | -0.0231 |
| AGGCGGGG | 0.0904 |
| CGGGCGAC | 0.241 |
| AATTGTTG | -0.0607 |
| GGATACCA | -0.0311 |
| AAGCTGAA | -0.0434 |
| ATATCTTG | -0.102 |
| TCGAAAGA | -0.134 |
| CATGTCTA | 0.056 |
| CGATTAGC | 0.0631 |
| CAGGTTAA | -0.158 |
| CTGAGCGC | 0.222 |
| ATCATATC | 0.087 |
| ATTTGGGC | -0.172 |

Series 4
Target: CCNB3, cyclin fold, Cln2 fusion (human)
Method: yeast growth competition, sequencing
Medium: yeast
Notes: weak parent motif
Relative to: not given
Reading: higher = stronger binding
Parent: ORC1 docking peptide (human); PRARKRLELGNLG
| Variant | normalised enrichment score |
| --- | --- |
| G10A | 0.24 |
| N11S | 0.258 |
| K5R L9F | 2.96 |
| R4Q | 0.965 |
| K5C | 0.00427 |
| G13N | 0.135 |
| R2H | 0.173 |
| G13L | -0.359 |
| L7K | 0.547 |
| G13M | 0.52 |
| N11A | -0.0425 |
| R6Y | -0.0599 |
| A3S | 0.406 |
| A3Y | 0.652 |
| L7C | -0.0342 |
| G13C | 0.238 |
| L12K | 0.0367 |
| G13R | 0.329 |
| G10F | 0.151 |

Series 5
Target: Interferon regulatory factor 5, full length, phosphomimetic (IRF5, Homo sapiens, UniProt Q13568-2, residues 1-514, S451D/S453D/S456D/S462D)
Method: protein-binding microarray
Form: double-stranded DNA, one strand shown
Medium: in vitro
Concentration: 940 nM top
Notes: 60-bp whole probe
Together with: salmon DNA 0.4 mg/ml
Relative to: random background probes
Reading: higher = stronger binding
Shared flanks, not repeated: GCCTAGCAC … GTCTTGATTCGCTTGACGCTGCTG
| Oligonucleotide | fitted relative affinity |
| --- | --- |
| GACGGTATAGACACTGGGGACGTGCTA | -0.444 z-score |
| TTTGGTTTCCTTTTCCTTTAGTGCTAG | 3.85 z-score |
| GACGGTTTCGGGTTTCCGGACGTGCTA | 9.44 z-score |
| GACGATCTCAGTGTCGAGACGTGCTAG | -0.234 z-score |
| TACGGTTTCGGGTATCGGGACGTGCTA | 8.77 z-score |
| GACGGTTTCGGGTATCGTGACGTGCTA | 9.14 z-score |
| TCATTTTACAATTTGCTACTGTGCTAG | 0.578 z-score |
| TTCGGTTTCCTTTCCCTTTAGTGCTAG | 2.5 z-score |
| GACGATATCGGGACTCGAGACGTGCTA | -0.0671 z-score |
| GACGGTTACGGTTTCGGGACGTGCTAG | 3.44 z-score |
| TCATTTTAATTTTTAACACTGTGCTAG | 0.492 z-score |
| GACGGTTTCGACACTGGGCACGTGCTA | 6.88 z-score |
| GACGAACTCGGGTATCGAGACGTGCTA | 0.555 z-score |
| TTAGAACTGCGGACTGGATTAGTGCTA | -0.663 z-score |
| TTACGTATCGACACTGGGTTAGTGCTA | 3.14 z-score |
| TCATGAAGCGCTTCTCGAACTGTGCTA | -0.338 z-score |
| GTAGGTATCGGACTGGGTTAGTGCTAG | 3.28 z-score |
| GACGGTTTCGGTTTCGGGGCGTGCTAG | 14.7 z-score |
| TCATCTCTAACCTCTCTAACTGTGCTA | 1.53 z-score |
| GAAGGTCTCGGACTGGGGACGTGCTAG | 0.307 z-score |

A few entries again (series 1):
| Oligonucleotide | RBNS enrichment (R) |
| --- | --- |
| CUCCCUCCGAUGUUGGACUGCCUGAUGCUCCCAAUGACAUAUCCAAUGCUCCUGGCAUUUCUGGAGCAGGAGGUUGUCAGGACAACACAUAUAACCACCAAGGAUGUGUU | 0.467 |
| AAAUCUACCAGCUCUUGGAUGAAGAUAGAACAGUGCUUUUCCAGAGUGGGAAGGAAGGGGUUGAGACGCGUGCUUUGAGAGCCUGUGAGGCUGCUCCGUCCUUGCCAGCU | 0.336 |
| AUUCCAGGAUUUAGGCCUUAUCAUCCCGGCCAGUCUCAGAUGACCUAGCUGGCCCCAGGCUGGGGUCCUAUGCAAAGCAGGAUCCCACUAAUGGGAUUCAGGCAGAAGUG | 0.194 |
| UGUCCUGCCAACGGUAACAAUCAAGUAUGUCAUCAGACAUUGCCCAAUGUCCCCAGGGGGCAACACCCCUCUCUUGGACUUCAGGGUCAAGAGAAUCUCUGCUGGCUACC | 0.173 |
| GAGAGGAUUUCCUGAGACUGGUUUGGAUCUCCCUGCAUGACAGUCCCCCAGAAACUUAGUGAGUCCUGGACUGGACUGAACAUCCAGAAAGCUUCCCUGCAAUCUUGGGG | 5.11 |
| GAACCUGCUAUGGCCUUCAGCAGUCACCAUCAUCCAGACCCCCCGGGCCUCAGUUUCCUCAAUCAUAGAAGAAGACCAAUAGACAAGAUCAGCUGUUCUUAGAUGCUGGU | 0.317 |
| CUUAAUGGCAAAAUAAUUAUGGUAAAAUACAAGUCUCGUGUUUAUUAUUCCUUAAGAAGUCUGUGUUAUAUUACCACGGAACACCCAAUAAAGCAAAAUGUGGUUGUUUC | 0.536 |
| UUAGGCCACUGUGCUUUGCGGUCCAUUAGUAAACUUGUGUUGCUAAGUGCUAAACAGAAUACUGCUAUUUUGAGAGAGUCAAGACUCUUUCUUAAGGGCCAAGAAAGCAA | 0.209 |
| GGACAAGGAAGACAUUAUACUAGUUGAGGCUACAGAAACUCACAUUUUGCUAGAGCUCAAGUAAUAGAAACUUAGUUUCAGAAUCCUGAAUCCAACAUCUAUUUGGAAUG | 0.225 |
| GAACAAGAUACAUUGCAGUGUCAUUUAUAGAUCCCUAAGUUAUUUACUUUUCAUUGAAUUGAAAUUUAUUUUGGAUGAAUGACUGGCAUGAACACGUCUUUGAAGUUGUG | 0.423 |
| CCUCUCCCCAGGGCCUGGCCCUACCUCCUGGUCUUGUAAUUACAGGAGCCAUUUCUGUAGGUAACUGGACCAAGAAUGAGAAAAAUAAUGAAUUCUUAGCUCCCUGAUUA | 0.42 |
| AUGCGCGGAGGAGCUAGCCUGAAGGAUUCUGGGAAUCAUGUCCAUCCCUUUUCCUGUCAGUGUUUUUGAAACCCACAGUUUUAGUUGGUGCUGAUGGAGGGAGGGGGAAG | 0.414 |
